Measured values pooled from the literature.
Compare with care: the assays were run in different laboratories. “And” joins repeats or separate records; there may be more than shown.
Cell line: SNB-75

SMILES	test	test system	setting	scale	measurement	value
CC(=O)O[C@H]1C(=O)[C@@]2(C)[C@H]([C@H](OC(=O)c3ccccc3)[C@]3(O)C[C@H](OC(=O)[C@H](O)[C@@H](NC(=O)c4ccccc4)c4ccccc4)C(C)=C1C3(C)C)[C@]1(OC(C)=O)CO[C@@H]1C[C@@H]2O	sulforhodamine B	CNS cancer	NCI60 screen		TGI	80 nM
O=C1NC(=NCc2cccs2)S/C1=C\c1ccc2ncccc2c1	MTS		NCI60 panel		IC50	> 10000 nM
C#C[C@@]1(O)[C@@H](CO)O[C@@H](n2cc(Cl)c3c(N)ncnc32)[C@@H]1O	SRB		NCI-60 screen		TGI	888 nM and 574 nM
Cc1n[nH]c2nc(-c3ccc(Cl)cc3)c3c(NC(=O)c4ccccc4)nnc-3n12	SRB		10 µM, NCI60 single-dose screen	baseline: untreated	cell growth	110%
CCN(CC)c1ccc(C=NNC(=O)CSc2nc3ccccc3c(=O)n2Cc2ccc(S(N)(=O)=O)cc2)c(O)c1	NCI five-dose screen				TGI	> 100000 nM
O=C(Nc1nnc2[nH]c(=S)[nH]c(-c3ccc(Cl)cc3)c1-2)c1ccccc1	SRB		10 µM, NCI60 single-dose screen	baseline: untreated	cell growth	68.5%
CCCN1CCN(c2ccc3[nH]c(-c4ccc5[nH]c(-c6cc(OC)c(OC)c(OC)c6)nc5c4)nc3c2)CC1	SRB		10 µM, 48 h		growth percent	43.6%
C#C[C@@]1(O)[C@@H](CO)O[C@@H](n2ccc3c(N)ncnc32)[C@@H]1O	SRB		NCI-60 screen		TGI	3840 nM
CCCCN1CCN(c2ccc3[nH]c(-c4ccc5[nH]c(-c6cc(OC)c(OC)c(OC)c6)nc5c4)nc3c2)CC1	SRB		10 µM, 48 h		growth percent	38.7%
CCOC(=O)CSc1nc(-c2ccc(Cl)cc2)c2c(NC(=O)c3ccccc3)nnc-2[nH]1	SRB		10 µM, NCI60 single-dose screen	baseline: untreated	cell growth	84.7%
Cn1cncc1C1=CN(c2ncnc3[nH]cnc23)CCS1			CNS cancer		TGI	19500 nM
CCCCN1CCN(c2ccc3[nH]c(-c4ccc5[nH]c(-c6ccc(C(F)(F)F)cc6)nc5c4)nc3c2)CC1	SRB		10 µM, 48 h		growth percent	-93.6%
CSc1nc(-c2ccc(Cl)cc2)c2c(NC(=O)c3ccccc3)nnc-2[nH]1	SRB		10 µM, NCI60 single-dose screen	baseline: untreated	cell growth	95.3%
Cc1cc(C)n(C(=S)[S][Au][PH](CCCCCC[PH]([Au][S]C(=S)n2nc(C)cc2C)(c2ccccc2)c2ccccc2)(c2ccccc2)c2ccccc2)n1	cell growth, NCI-60 screen		CNS cancer		log10 TGI	> -4
CCCCN1CCN(c2ccc3[nH]c(-c4ccc5[nH]c(-c6ccc(OCC)cc6)nc5c4)nc3c2)CC1	SRB		10 µM, 48 h		growth percent	60%

Repeated from above:
SMILES	test	test system	setting	scale	measurement	value
Cc1n[nH]c2nc(-c3ccc(Cl)cc3)c3c(NC(=O)c4ccccc4)nnc-3n12	SRB		10 µM, NCI60 single-dose screen	baseline: untreated	cell growth	110%
Cn1cncc1C1=CN(c2ncnc3[nH]cnc23)CCS1			CNS cancer		TGI	19500 nM
